Measured values from different studies.
Parts stem from different laboratories: compare values within a part only.

Series 1
Target: Sal-like protein 4, full length isoform B (SALL4, Homo sapiens, UniProt Q9UJQ4-2, residues 1-616)
Technique: universal PBM
Form: double-stranded DNA, one strand shown
Sample: in vitro
Concentration: not given
Notes: 8-mer, flanks averaged, mean of replicates
Reading: higher = stronger binding
Quantity: E-score
Target sequence (chain): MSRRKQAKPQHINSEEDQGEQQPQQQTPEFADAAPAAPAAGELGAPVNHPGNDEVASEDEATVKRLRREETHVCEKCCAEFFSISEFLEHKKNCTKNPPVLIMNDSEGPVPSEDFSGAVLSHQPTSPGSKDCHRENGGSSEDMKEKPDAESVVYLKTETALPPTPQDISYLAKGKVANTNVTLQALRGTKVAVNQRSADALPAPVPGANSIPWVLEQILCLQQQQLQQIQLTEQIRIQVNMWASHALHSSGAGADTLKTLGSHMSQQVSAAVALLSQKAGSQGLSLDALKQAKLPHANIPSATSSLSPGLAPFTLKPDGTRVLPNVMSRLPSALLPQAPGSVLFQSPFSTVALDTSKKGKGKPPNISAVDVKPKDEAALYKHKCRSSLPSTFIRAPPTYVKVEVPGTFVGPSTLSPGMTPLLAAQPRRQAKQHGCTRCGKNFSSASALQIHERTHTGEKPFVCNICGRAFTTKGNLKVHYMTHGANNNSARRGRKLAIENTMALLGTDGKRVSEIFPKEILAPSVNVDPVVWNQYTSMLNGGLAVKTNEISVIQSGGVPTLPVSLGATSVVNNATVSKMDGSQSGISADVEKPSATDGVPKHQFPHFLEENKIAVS
CCTGGCCC: -0.331
GCTAATAA: 0.239
CGTGATTA: 0.169
CTACGGAG: -0.157
AGGAACAC: -0.0329
TAGGTGAA: 0.0292
GCACGTGA: -0.0395
ATCCCGTG: -0.0516
CCGATGAA: -0.0007
AGAAAAGG: 0.102
CAAGAGGA: -0.072
AAGTATTG: 0.236
CTCCGACC: -0.242
GAAAACCA: 0.00453
AGGTTGCG: -0.0506
TACGCCGA: -0.209
CTGGACAA: -0.076
TATAGCCA: 0.142
ACTCTGCT: -0.204
ATCAATAA: 0.414
TCCATCCA: 0.0817
CGTCAGGA: -0.0809
ATCTGCAG: -0.0226
TCGTACAA: 0.314
CAGCAAAC: -0.0494

Series 2
Target: Histone acetyltransferase KAT6A, winged helix 2, GST fusion (KAT6A, Homo sapiens, UniProt Q92794, residues 85-181)
Technique: protein binding microarray
Form: double-stranded DNA, one strand shown
Sample: in vitro
Concentration: not given
Notes: 8-mer, flanks averaged, mean of 2 arrays, mostly near background
Reference: not given
Reading: higher = stronger binding
Quantity: E-score
Residues (chain): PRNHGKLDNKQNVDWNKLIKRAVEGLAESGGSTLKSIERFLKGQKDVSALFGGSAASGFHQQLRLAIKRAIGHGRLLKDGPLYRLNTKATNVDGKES
AACTCCCG: 0.172
GCGTGGGA: 0.172
AACGCCAA: -0.022
AGCTAACG: -0.00722
AGTTCCCC: 0.122
CATTTACG: -0.229
ACTGTCGC: 0.0534
ACATGGGT: -0.17
ACTTAACT: -0.0854
ATATGAAG: -0.0419
CGACACAG: -0.0305
ACTACGGA: -0.154
CCACCTGC: 0.2
GTAAGAAA: 0.0582
TCATGCCA: -0.0199
ATGATTTC: -0.0366
CACATCTG: -0.142
ACTCTCAG: -0.12
CACTACCA: 0.0518
CGCCTGTA: -0.0226
ACCCGGAA: 0.0942

Series 3
Target: Interferon regulatory factor 3, full length, phosphomimetic (IRF3, Homo sapiens, UniProt Q14653, residues 1-427, S386D/S396D/S398D/S402D/T404D/S405D)
UniProt Q14653, sequence (whole entry, unmodified, looked up): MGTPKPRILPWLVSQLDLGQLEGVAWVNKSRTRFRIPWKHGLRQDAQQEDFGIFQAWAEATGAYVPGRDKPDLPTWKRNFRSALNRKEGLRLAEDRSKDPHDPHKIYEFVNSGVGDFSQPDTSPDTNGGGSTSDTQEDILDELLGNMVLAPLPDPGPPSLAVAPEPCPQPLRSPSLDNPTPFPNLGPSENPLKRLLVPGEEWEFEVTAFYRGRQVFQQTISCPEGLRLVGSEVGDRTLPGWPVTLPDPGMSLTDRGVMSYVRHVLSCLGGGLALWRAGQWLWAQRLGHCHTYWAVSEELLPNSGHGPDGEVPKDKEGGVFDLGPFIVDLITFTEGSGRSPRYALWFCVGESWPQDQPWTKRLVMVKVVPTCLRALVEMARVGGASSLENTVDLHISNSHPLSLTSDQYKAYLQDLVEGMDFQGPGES
Technique: protein-binding microarray
Form: double-stranded DNA, one strand shown
Sample: in vitro
Concentration: 2540 nM top
Notes: 60-bp whole probe
With: salmon DNA 0.4 mg/ml
Reference: random background probes
Reading: higher = stronger binding
Quantity: fitted relative affinity
Shared flanks, not repeated: GCCTAGCAC … GTCTTGATTCGCTTGACGCTGCTG
TTGGATTTCAGTATCGATTAGTGCTAG: 2.03 z-score
GACGAACTGGGGACTGGAGAAGTGCTA: -0.621 z-score
GACGTTCTCGGTATCGGGACGTGCTAG: 1.78 z-score
TCAAATATATATATTGTACTGTGCTAG: 0.271 z-score
TCATGCCTATTTTTCACACTGTGCTAG: 0.29 z-score
TAAGGTATCGACTATCGGTTAGTGCTA: 0.453 z-score
TTAGTTATCCTTATCCTTTAGTGCTAG: 3.5 z-score
TGAACTTGGAATTTCCCTCTGTGCTAG: 0.64 z-score
TTAGGACTGGACTTTCGGATAGTGCTA: 0.528 z-score
GACGGTCTTGGTCTCGGGACGTGCTAG: 0.000188 z-score
GACGTACTGGGGTATCGGGACGTGCTA: -0.291 z-score
GACGGTTTCGGGTATCAGGACGTGCTA: 4.75 z-score
TTAGGACTGGGGTATAGGTTAGTGCTA: -0.801 z-score
TCATCTCTGCTCTTTTCAACTGTGCTA: 1.06 z-score
TTAGGTTTGGGGTTTCGGTTAGTGCTA: 2.27 z-score
GACGGTATCCGTTTCGGGACGTGCTAG: 6.84 z-score
TTAGGTCACCTACTGCTTTAGTGCTAG: 0.311 z-score
GTGCCTTTTTTTTTTTTTCTGTGCTAG: 2.82 z-score
TTAGGTTTCGGTTCCGGTTCGTGCTAG: 10.3 z-score

Series 4
Target: PABPC1L2, full length, GST fusion (mouse, UniProt A0ABA7IW68)
Technique: RNAcompete
Form: RNA
Sample: in vitro
Concentration: 20 nM
Notes: 7-mer, probes averaged, single round
Reference: mean of 7-mers
Reading: higher = stronger binding
Quantity: 7-mer Z-score
Residues (chain): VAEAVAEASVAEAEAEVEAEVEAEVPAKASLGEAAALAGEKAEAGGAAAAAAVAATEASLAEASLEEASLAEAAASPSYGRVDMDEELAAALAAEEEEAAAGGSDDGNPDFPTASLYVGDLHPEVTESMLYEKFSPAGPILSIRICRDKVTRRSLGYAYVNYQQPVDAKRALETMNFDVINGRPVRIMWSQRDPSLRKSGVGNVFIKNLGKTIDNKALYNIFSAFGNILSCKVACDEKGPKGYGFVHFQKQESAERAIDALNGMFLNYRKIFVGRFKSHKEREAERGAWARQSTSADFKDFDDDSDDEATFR
GCUAUAA: 0.296
ACACUCU: -0.151
GGGAUCG: 0.22
CACGUGU: -0.345
CGAAAAC: 2.62
UAGUAUC: -0.211
GCCCGGA: -0.0264
UAAGGCC: -0.119
CCUACUG: -0.222
CUGCUGA: -0.17
ACCAAGG: 0.133
AAUAGCA: 0.191
GGAUGAC: -0.0246
CGGACCA: -0.00289
ACCAUGC: -0.11
UUACUUU: -0.24
CGUACGC: -0.224

Series 5
Target: RNA binding protein fox-1 homolog 2, RRM domain, GST-SBP tag (RBFOX2, Homo sapiens, UniProt O43251-10, residues 100-194)
Technique: RNA Bind-n-Seq
Form: RNA
Sample: in vitro
Concentration: 365 nM
Notes: natural RNA segment, single round, ends assumed
Reference: no-protein control
Reading: higher = stronger binding
Quantity: RBNS enrichment (R)
Shared flanks, not repeated: GGGAGUUCUACAGUCCGACGAUC … UGGAAUUCUCGGGUGCCAA
Construct (chain): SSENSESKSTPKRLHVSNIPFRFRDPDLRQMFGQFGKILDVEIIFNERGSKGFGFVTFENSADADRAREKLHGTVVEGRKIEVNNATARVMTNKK
AAGUGGAAUCUUCUCCCUACAUAAAAUUUUGCAAAGUUGGGGUGCCAGAAUUAAAUUAUGUAUUAAACUCUUGUCUCCAUUUAACACCUUUGCAGUGAAAAACUUUUUGC: 0.794
AAUGCUUCUGGAGACGGAAACAUAUUCCCUACAGGGAAUGAAGCUUCUCAGAGAAACUGCCGAAAGUUGCAUUAAAAAAAAUAAAAAGUACAGAAGAAAUAGUUGCCACU: 0.59
GCUAUGUGAUGCUAGCCGGUGGCUUUCUGGGCUAGGCCCCAGUUUGAGGCUCCCCUGGGAACUAGAGCCAGGAACAGCCAGUGGCACUGACAAGGGGACGGAGUCCAAGG: 0.919
AGGGAGAACACAGAAAGAAGAAUUUCUAAAAUAUUGGAUUUACUUCUUAUAUUGAGUCAGAUGCAUACUUUUAGAUUUGCAUUGGGGAAAAUGUACUAGCUAAAAAUGGA: 0.86
GAGGCACAUAGGCUACCCAAGAGAGCCUUGGAUUCAGUGGUACACUCCUUGGGCCCAAGGGCUUUAGCAGCUGGAUAUGGGGUUCCUUGAUUUUCCUCUGGGCCCAAAUA: 0.905
UUUCUAAUUGUACCUGAGUUGACCAUCCUUUCUUUUUAUAGUAUAUUUCUUGUAUGAUAUUUUGUAAAGCUCUCACCUGGUUCUUUUAUGGGGACUUUUCGUUUUUGGGC: 0.376
AAACUUGGCUCCAGGGUUGGUGCUUCUUAAAUGGGGAAAGGCACAGUGAACUUCAGCCAUAUUAAGGACGUGGUCUGUGGUUUAUCACCAGACUUGUUCACUCCAUUCAA: 0.386
UAUGAAGCAAAGAGGAUCCUGGGCUAUUUAAAGCUCUGGUAACCGAGAAGAACUUGCCCCUGUUCUUACCUAGCUUCUUUGAGUCAGUCAGUGUGCAGAGCUCCUUUCUG: 0.312
AUUUCCUGUCAUAGGAAGCUCCUUGGAAGAAGGGAUGGGGGGAUGAGAUCAUGUUUACAGACCUGUUUUGUCAUCCUGCUGCCAAGAAGUUUUUUAAUCACUUGAAUAAA: 0.235
GAACCAGGAAAGGAAAUCCUCGCUUCCAUGGCUGCCAAAAGGACAGUGUUUCUGGCUCUCAGCCCUAAGGCCCUGCAAACUCUAACUUAUUUCCCAAUUAGUCUGUAUCU: 0.508
UUAACACCAGUAACCGAUUUUAGGACCUUGAGCAAGUUAAAUAACUUCUUCCUGCCUUGGUUUCCCCGUCAGAAAUGGGGAACAGUGGUAGCUACCUCAUAACUUGUAAA: 0.24
UUUCUACUGAACAUCCUAGUUUUAAACAGAAGAAAAACUGUAAUCCUGGGGUUGGUAUGUAGGAGGUCUAUCCUGCAGAAUAAGUUGAUACAUUAGUACCUGAUUUCAUA: 0.31

Series 6
Target: Phosphate system positive regulatory protein PHO4, full length, GST-tagged (PHO4, Saccharomyces cerevisiae, UniProt P07270, residues 1-312)
Technique: competition protein-binding microarray
Form: double-stranded DNA, one strand shown
Sample: in vitro
Concentration: 2 µM
Notes: whole 60-bp probe, lowest competitor level
With: Cbf1 competitor, 0.05 µM
Reading: higher = stronger binding
Quantity: fluorescence intensity
Shared flanks, not repeated: … GTCTTGATTCGCTTGACGCTGCTG
Target sequence (chain): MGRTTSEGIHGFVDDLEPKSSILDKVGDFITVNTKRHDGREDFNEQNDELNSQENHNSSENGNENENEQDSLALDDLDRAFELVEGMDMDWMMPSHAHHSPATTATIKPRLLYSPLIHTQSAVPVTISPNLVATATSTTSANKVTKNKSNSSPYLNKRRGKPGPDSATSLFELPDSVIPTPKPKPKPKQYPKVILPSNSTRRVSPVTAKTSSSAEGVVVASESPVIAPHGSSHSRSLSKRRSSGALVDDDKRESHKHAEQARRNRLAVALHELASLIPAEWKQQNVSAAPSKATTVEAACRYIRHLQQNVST
CGGGGTTAAGTTTGGACAGTGGGTGGCTTGCAGCAG: 4640 a.u.
ACAGATAAAGTCTAGTACGTGTGGAGGTTAATGCGC: 6350 a.u.
CTTTTGGGCGGCCATCACGCAGATGTGGTGTTTGAG: 6560 a.u.
TAGGCCGTACCGGTTCTCGTGGTGATGTTACCCAAG: 6060 a.u.
ACCGCGCGATTATTTAGTGTGACGGGAGCAAAGTAG: 5680 a.u.
CTTCTGTAAATTTGTGGAGTGGGTGGACGCGCCCCG: 4050 a.u.
GGTCCAGCCTCGAAACTCGTGACGGCATTTGAGGTG: 9020 a.u.
TCTCCACTCTTCCTCCACGTGGCCGTACTTTCCCCG: 20200 a.u.
GGCAGCCTTTTCCATCTCGTGAAATGTTTCAGCCTT: 3620 a.u.
CGGGGTTAAGTTTGATCTGTGGGTGGCTTGCAGCAG: 4260 a.u.
GAACTTGAAGCACTTCACGTGCCGATCCTGCGCTCA: 13700 a.u.
ACTTTTTGTGGGGTAAACGTGGATTAAACGAATCTC: 12600 a.u.
ATGCCCTATTAAAAATTCGTGGGACTATGATAATTT: 5330 a.u.
CTTGCGTTAGCTATTTTCGTGCGATTTGTTTGTTCC: 4830 a.u.
CTGACGGTAGCGCTCCAGGTGATGCTGGTGTTTCAT: 4260 a.u.
CGGGGTTAAGTTTGCAAAGTGGGTGGCTTGCAGCAG: 4900 a.u.

Some of these lines once more (series 2):
AGTTCCCC: 0.122
CATTTACG: -0.229
ACTGTCGC: 0.0534
ACATGGGT: -0.17
ACTTAACT: -0.0854
ATATGAAG: -0.0419
CGACACAG: -0.0305
ACTACGGA: -0.154
CCACCTGC: 0.2
GTAAGAAA: 0.0582
TCATGCCA: -0.0199
ATGATTTC: -0.0366
CACATCTG: -0.142
ACTCTCAG: -0.12
